Measured values gathered from unrelated publications.
Numbered parts are unrelated; each lists some results of a single study.
Sequence of UniProt Q00535 (whole entry, looked up): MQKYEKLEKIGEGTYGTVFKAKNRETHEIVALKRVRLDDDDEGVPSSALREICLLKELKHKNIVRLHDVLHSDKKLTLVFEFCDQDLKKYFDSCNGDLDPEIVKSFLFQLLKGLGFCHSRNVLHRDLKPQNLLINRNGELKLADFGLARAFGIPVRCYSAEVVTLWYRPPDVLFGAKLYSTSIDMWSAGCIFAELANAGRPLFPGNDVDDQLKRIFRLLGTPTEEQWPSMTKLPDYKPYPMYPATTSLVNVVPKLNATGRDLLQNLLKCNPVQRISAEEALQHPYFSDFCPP
Sequence of UniProt Q96PF2 (whole entry, looked up): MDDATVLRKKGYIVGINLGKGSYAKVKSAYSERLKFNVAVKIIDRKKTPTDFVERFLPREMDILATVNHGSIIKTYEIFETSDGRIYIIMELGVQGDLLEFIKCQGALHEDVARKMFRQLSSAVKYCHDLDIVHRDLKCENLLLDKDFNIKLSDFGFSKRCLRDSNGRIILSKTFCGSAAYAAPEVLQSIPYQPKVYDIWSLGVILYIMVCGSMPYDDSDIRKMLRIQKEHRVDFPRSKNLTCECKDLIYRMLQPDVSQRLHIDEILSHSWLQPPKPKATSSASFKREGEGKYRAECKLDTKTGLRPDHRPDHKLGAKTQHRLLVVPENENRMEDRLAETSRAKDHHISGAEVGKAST
Sequence of UniProt Q9NRH2 (whole entry, looked up): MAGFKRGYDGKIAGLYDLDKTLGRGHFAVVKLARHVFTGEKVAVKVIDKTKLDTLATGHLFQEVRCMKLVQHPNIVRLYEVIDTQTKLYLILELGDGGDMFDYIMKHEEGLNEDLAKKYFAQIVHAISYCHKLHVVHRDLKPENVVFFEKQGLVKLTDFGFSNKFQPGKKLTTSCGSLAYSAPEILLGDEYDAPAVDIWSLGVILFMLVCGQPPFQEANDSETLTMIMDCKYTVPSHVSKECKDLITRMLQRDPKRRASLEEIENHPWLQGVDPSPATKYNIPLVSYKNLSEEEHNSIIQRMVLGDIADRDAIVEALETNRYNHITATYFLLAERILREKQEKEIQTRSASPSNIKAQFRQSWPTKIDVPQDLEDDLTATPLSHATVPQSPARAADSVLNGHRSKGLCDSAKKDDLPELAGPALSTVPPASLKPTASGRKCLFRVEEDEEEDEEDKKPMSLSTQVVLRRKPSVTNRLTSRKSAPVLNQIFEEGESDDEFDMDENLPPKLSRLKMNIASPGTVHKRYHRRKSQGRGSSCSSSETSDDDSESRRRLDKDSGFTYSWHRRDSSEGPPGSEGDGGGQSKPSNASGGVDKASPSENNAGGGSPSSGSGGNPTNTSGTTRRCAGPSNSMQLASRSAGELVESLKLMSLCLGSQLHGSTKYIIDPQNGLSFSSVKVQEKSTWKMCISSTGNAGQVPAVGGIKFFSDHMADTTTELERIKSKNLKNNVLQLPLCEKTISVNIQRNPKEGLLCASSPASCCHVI
Sequence of UniProt Q8IVT5 (whole entry, looked up): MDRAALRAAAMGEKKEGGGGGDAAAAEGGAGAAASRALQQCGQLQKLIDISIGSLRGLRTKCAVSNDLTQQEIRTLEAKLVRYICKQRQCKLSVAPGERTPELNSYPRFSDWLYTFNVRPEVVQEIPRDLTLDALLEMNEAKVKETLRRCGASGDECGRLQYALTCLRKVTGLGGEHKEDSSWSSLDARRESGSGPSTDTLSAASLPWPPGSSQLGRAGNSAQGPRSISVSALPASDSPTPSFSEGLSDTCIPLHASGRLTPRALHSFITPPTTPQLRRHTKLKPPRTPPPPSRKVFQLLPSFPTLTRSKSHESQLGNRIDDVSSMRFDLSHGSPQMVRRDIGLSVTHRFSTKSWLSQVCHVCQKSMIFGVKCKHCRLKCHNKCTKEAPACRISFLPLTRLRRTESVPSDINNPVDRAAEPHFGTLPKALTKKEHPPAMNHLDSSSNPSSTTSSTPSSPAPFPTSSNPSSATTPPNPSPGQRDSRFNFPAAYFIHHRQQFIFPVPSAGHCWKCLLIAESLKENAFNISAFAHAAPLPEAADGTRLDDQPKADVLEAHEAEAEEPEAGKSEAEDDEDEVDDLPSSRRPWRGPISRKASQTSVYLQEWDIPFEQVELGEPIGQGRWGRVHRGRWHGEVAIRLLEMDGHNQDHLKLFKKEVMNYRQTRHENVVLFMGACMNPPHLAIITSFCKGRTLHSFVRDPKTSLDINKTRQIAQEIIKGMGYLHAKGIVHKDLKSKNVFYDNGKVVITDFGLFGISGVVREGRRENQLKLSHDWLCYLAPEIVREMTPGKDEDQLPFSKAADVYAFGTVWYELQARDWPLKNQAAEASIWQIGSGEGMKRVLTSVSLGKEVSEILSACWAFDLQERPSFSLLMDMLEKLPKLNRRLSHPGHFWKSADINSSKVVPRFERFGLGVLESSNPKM
Sequence of UniProt P49840 (whole entry, looked up): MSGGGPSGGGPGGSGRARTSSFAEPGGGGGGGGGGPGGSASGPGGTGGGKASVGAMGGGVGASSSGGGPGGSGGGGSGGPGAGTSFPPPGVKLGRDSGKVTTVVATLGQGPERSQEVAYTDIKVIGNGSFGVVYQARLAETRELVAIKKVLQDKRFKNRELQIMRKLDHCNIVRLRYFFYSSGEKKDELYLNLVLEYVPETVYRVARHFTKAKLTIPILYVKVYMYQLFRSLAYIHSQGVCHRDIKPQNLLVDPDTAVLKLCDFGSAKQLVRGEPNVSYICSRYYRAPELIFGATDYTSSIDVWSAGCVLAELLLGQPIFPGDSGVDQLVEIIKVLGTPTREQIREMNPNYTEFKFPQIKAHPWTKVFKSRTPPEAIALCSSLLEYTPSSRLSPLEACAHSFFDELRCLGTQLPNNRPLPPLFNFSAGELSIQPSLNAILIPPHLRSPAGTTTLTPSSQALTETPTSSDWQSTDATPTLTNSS
Sequence of UniProt Q05655 (whole entry, looked up): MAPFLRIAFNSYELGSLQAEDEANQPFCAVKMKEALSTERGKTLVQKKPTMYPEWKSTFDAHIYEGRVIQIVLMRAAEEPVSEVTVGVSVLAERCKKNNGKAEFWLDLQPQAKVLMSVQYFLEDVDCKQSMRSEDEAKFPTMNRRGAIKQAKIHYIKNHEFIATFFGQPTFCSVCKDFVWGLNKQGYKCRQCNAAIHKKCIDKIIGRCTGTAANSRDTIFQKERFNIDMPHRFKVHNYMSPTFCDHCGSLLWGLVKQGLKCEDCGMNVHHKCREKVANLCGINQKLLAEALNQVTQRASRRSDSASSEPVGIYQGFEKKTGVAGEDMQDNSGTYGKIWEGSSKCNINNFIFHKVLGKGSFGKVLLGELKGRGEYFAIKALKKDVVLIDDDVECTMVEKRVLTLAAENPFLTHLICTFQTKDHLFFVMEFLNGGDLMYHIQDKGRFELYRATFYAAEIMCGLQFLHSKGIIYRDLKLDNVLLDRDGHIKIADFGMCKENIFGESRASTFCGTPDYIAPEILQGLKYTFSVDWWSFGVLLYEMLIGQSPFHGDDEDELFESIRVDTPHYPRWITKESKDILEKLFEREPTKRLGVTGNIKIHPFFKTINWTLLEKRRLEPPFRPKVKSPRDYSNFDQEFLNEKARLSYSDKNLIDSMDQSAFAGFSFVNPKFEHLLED

Sample 1
SMILES: O=C(Nc1cnn(-c2csc(C(=O)NC3COC3)c2)c1)Nc1ccccc1Cl
Concentration: 5 µM
It gave 94.3% for remaining activity (Cyclin-dependent kinase 5, with p35 (CDK5, Homo sapiens, UniProt Q00535); enzyme activity; baseline: untreated control).
It gave 107% for remaining activity (PRKCD (Homo sapiens, UniProt Q05655); enzyme activity; baseline: untreated control).
For SNRK (Homo sapiens, UniProt Q9NRH2); enzyme activity; baseline: untreated control: remaining activity read 90.6%.
KSR1 (Homo sapiens, UniProt Q8IVT5); enzyme activity; baseline: untreated control — remaining activity: 100%.
The remaining activity was 90% (TSSK2 (Homo sapiens, UniProt Q96PF2); enzyme activity; baseline: untreated control).
It gave 94.6% for remaining activity (MAP4K5 (Homo sapiens, UniProt Q9Y4K4); enzyme activity; baseline: untreated control).
For Cyclin-dependent kinase 5, with p25 (CDK5, Homo sapiens, UniProt Q00535); enzyme activity; baseline: untreated control: remaining activity read 101%.
GSK3A (Homo sapiens, UniProt P49840); enzyme activity; baseline: untreated control — remaining activity: 97%.
It gave 111% for remaining activity (Cell division cycle 7-related protein kinase, with DBF4 (CDC7, Homo sapiens, UniProt O00311); kinase activity, kinase panel profiling).

Sample 2
Target: 3-phosphoinositide-dependent protein kinase 1 (PDPK1, Homo sapiens, UniProt O15530)
Effect on: enzyme activity
Action: inhibitor
Concentration: 0.5 µM
Baseline: control
Residues (O15530 1-556): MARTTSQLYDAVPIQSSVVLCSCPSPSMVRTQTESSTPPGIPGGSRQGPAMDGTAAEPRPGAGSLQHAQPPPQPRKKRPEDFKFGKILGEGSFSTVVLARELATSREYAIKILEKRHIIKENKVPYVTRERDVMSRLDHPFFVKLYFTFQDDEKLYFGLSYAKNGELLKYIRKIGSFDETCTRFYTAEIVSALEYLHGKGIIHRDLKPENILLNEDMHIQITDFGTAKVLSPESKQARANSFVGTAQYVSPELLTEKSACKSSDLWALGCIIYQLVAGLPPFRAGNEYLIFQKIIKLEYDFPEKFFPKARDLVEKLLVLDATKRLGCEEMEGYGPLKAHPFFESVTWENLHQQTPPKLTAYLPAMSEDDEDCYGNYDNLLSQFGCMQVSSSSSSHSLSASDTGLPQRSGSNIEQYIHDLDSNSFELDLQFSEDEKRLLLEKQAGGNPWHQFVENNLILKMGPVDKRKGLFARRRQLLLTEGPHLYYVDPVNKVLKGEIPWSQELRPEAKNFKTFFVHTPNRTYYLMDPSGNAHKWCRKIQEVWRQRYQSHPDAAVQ
With `CN(C)c1ccc(C=C2C(=O)Nc3ccccc32)cc1` the remaining activity was 82.3%.
`O=C(Nc1cccc(Nc2cc(Nc3cccc(C(F)(F)F)c3)ncn2)c1)C1CC1` has a remaining activity of 100%.
With `Cn1sc(=O)n(Cc2ccccc2)c1=O` the remaining activity was 95.5%.
The remaining activity of `NCCNc1ncc(C(N)=O)c(Nc2cccc(C(F)(F)F)c2)n1` is reported as 82.4%.
For `Cn1c2ccccc2c2c3c(c4c5ccccc5n(CCC#N)c4c21)CNC3=O`, the remaining activity was 63.2%.
For `COc1ccc(C(=O)Nc2sc3c(c2C(N)=O)CCCC3)cc1OC`, the remaining activity was 87.8%.
With `O=C(CCCc1ccc(-c2ccccc2F)cc1)Nc1ccc(O)cc1` the remaining activity was 112%.
The remaining activity of `CCOC(=O)c1c(C)[nH]c(/C=C2\C(=O)Nc3ccccc32)c1C` is reported as 92.5%.
With `N#CC(C#N)=C(N)/C(C#N)=C/c1ccc(O)cc1` the remaining activity was 99.4%.
`CO[C@H]1C[C@@H]2CC[C@@H](C)[C@@](O)(O2)C(=O)C(=O)N2CCCC[C@H]2C(=O)O[C@H]([C@H](C)C[C@@H]2CC[C@@H](O)[C@H](OC)C2)CC(=O)[C@H](C)/C=C(\C)[C@@H](O)[C@@H](OC)C(=O)[C@H](C)C[C@H](C)/C=C/C=C/C=C/1C` has a remaining activity of 92.6%.
With `Nc1ncnc2n[nH]c(Nc3ccc(F)cc3)c12` the remaining activity was 102%.
`O=C1NC(=O)C(c2cn(CCCO)c3ncccc23)=C1c1cnccn1` has a remaining activity of 92.2%.
For `COc1cc2ncnc(Nc3ccc(F)c(Cl)c3)c2cc1OCCCN1CCOCC1`, the remaining activity was 88.2%.
`O=S(=O)(c1cccc2cnccc12)N1CCCNCC1` gave a remaining activity of 91.3%.
`O=c1c2ccccc2[nH]c(=S)n1CCN1CCC(=C(c2ccc(F)cc2)c2ccc(F)cc2)CC1` gave a remaining activity of 99.2%.

Sample 3
Target: Beta-1 adrenergic receptor (ADRB1, Homo sapiens, UniProt P08588)
Sequence of UniProt P08588 (whole entry, looked up): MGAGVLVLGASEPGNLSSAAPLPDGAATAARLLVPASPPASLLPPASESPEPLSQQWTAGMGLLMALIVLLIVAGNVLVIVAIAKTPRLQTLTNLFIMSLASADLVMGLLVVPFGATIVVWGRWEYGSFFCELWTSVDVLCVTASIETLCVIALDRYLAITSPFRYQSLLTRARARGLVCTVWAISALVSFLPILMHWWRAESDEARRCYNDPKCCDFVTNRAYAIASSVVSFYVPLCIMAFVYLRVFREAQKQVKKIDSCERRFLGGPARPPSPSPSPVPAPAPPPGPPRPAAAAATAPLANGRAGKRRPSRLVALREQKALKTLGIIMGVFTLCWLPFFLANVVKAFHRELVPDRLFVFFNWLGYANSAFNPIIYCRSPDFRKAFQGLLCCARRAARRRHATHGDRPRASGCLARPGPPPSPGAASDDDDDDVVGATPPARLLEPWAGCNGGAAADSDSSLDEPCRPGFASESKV
Action: agonist
The EC50 of `COCc1cc(NCC(O)COc2ccc(Cl)c(C)c2)ncn1` (stereo not shown) is reported as 8.91 µM.
`Cc1cc(C)n(-c2ccc(=O)n(C3CCN(c4nc5ccccc5cc4C#N)CC3)n2)n1` gave an EC50 of at least 100 µM.
For `CC(C)(C)NC[C@H](O)COc1cccc2c1CCCC2=O`, the EC50 was at least 100 µM.
`O=C(Cc1ccccc1)Nc1ccc([C@@H](O)[C@H]2COCC(=O)N2Cc2ccc(C(F)(F)F)cc2)cc1` gave an EC50 of at least 100 µM.
For `Cn1c(=O)n(-c2ccc(N3CCN(C(=O)OC(C)(C)C)CC3)c(C(F)(F)F)c2)c2c3cc(-c4cncc(Cl)c4)ccc3ncc21`, the EC50 was at least 100 µM.
The EC50 of `Cc1ncc(-c2ccc(F)c3cccnc23)nc1C` is reported as at least 100 µM.
`Fc1ccc(-c2nnc3ccc(N4CCN(c5ccccn5)CC4)nn23)nc1` gave an EC50 of at least 100 µM.
With `O=C(Nc1ccc2ccccc2n1)c1ccccc1OCc1cscn1` the EC50 was at least 100 µM.

Sample 4
Target: Histamine H1 receptor (HRH1, Homo sapiens, UniProt P35367)
Sequence of UniProt P35367 (whole entry, looked up): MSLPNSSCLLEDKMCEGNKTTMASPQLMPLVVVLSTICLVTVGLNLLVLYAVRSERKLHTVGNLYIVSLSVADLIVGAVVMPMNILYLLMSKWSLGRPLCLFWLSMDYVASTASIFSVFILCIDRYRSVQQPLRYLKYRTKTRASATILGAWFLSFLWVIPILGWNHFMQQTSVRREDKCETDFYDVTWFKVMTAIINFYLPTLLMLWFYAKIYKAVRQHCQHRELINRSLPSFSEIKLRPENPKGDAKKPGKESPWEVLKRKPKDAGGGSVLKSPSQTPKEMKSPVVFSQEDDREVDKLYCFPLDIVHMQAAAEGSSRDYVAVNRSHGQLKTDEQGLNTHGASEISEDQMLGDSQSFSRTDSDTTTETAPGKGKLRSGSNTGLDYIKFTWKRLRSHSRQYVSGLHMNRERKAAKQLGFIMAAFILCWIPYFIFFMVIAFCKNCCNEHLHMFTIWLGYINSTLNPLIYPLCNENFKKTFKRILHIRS
Effect on: ligand displacement
Concentration: 10 µM
`C[C@@H](c1cccc(C#N)c1)n1cc(Cl)cc(C(N)=O)c1=N` has an inhibition of -9.05%.
For `COc1cccc(NC(=O)c2nc3scc(CN(C)Cc4ccccc4)c3c(=O)[nH]2)c1`, the inhibition was 73.4%.
`CC(=O)N1CCC(c2ccc(C(=O)NC3=NCCN3)cc2C(F)(F)F)CC1` gave an inhibition of -0.162%.
`CN1CCN(c2ccnc(NCCc3ccccc3)n2)CC1` has an inhibition of 41.6%.
For `CNC(=O)Nc1ccc2c(c1)CC[C@]21OC(=O)N(CC(=O)N(Cc2ccc(F)cc2)[C@@H](C)C(F)(F)F)C1=O`, the inhibition was 1.99%.
For `NC(=O)c1ccc2nc(-c3ccc(C4(N)CCC4)cc3)c(-c3ccccc3)n2n1`, the inhibition was 30.8%.
For `Nc1cnc(N2CCc3cc(S(=O)(=O)Nc4c(F)cc(Cl)cc4F)cc(N4CCCC4=O)c32)nc1`, the inhibition was -2.69%.
For `CN1CCN(c2cnc3c(C4CCN(C(=O)c5ccc(OC(F)(F)F)cc5N)CC4)ncnc3c2)CC1`, the inhibition was 14.6%.

A few entries again (sample 3):
The EC50 of `COCc1cc(NCC(O)COc2ccc(Cl)c(C)c2)ncn1` (stereo not shown) is reported as 8.91 µM.
`Cc1cc(C)n(-c2ccc(=O)n(C3CCN(c4nc5ccccc5cc4C#N)CC3)n2)n1` gave an EC50 of at least 100 µM.
For `CC(C)(C)NC[C@H](O)COc1cccc2c1CCCC2=O`, the EC50 was at least 100 µM.
`O=C(Cc1ccccc1)Nc1ccc([C@@H](O)[C@H]2COCC(=O)N2Cc2ccc(C(F)(F)F)cc2)cc1` gave an EC50 of at least 100 µM.
For `Cn1c(=O)n(-c2ccc(N3CCN(C(=O)OC(C)(C)C)CC3)c(C(F)(F)F)c2)c2c3cc(-c4cncc(Cl)c4)ccc3ncc21`, the EC50 was at least 100 µM.
The EC50 of `Cc1ncc(-c2ccc(F)c3cccnc23)nc1C` is reported as at least 100 µM.
